# Measurements from different studies.
# Each line is one published result; not all experiments were run side by side. ± marks the error that the study gave.
SMILES,organism,assay,system,conditions,how to read,quantity,result
COc1ccc(-c2oc3ccc(-c4cc(OC)c(OC)c(OC)c4)cc3c2C#CC(C)(C)O)cc1,hepatitis C virus,HCV replicon replication,HCV genotype 1b subgenomic replicon cells,10 µM,reference: DMSO,remaining activity,78.7%
c1ccc(CN2CCNCCN(Cc3ccccc3)CCNCC2)cc1,Leishmania donovani,"parasite growth, resazurin",,"72 h, amastigote",,IC90,> 25 µM
[O-][N+]1=C(c2ccccc2)C2=NCCN2c2ccccc21,Finegoldia magna,,,,,MIC,0.125 µg/mL
CNC(CC(C)C)C(=O)NC1C(=O)NC(CC(N)=O)C(=O)NC2C(=O)NC3C(=O)NC(C(=O)NC(C(=O)O)c4cc(O)cc(O)c4-c4cc3ccc4O)C(O)c3ccc(c(Cl)c3)Oc3cc2cc(c3OC2OC(CO)C(O)C(O)C2OC2CC(C)(NCc3ccc(-c4ccc(Cl)cc4)cc3)C(O)C(C)O2)Oc2ccc(cc2Cl)C1O (stereo not shown),Enterococcus faecalis and Enterococcus faecium,,VanA BM4166 and ATCC BAA-2317,added: lipoteichoic acid 100 µg/mL,reference: without lipoteichoic acid,MIC fold increase,2 fold
CC(CCC(=O)[O-])C1CCC2C3CCC4CC(O)CCC4(C)C3CC(O)C12C.C[N+](C)(C)CC(O)CC(=O)O (stereo not shown),Shigella flexneri,,ATCC 9199,"1 mg per disc, 18 to 24 h, 37 °C",,antibacterial activity,inactive
CCn1c(-c2ccc(-c3ccc(F)cc3)cc2)c(-c2ccc(-c3ccc(F)cc3)cc2)n(CC)c1=[Se+][Au-][P+](CC)(CC)CC.[Cl-],Acinetobacter baumannii,,carbapenem-resistant,"10, 20, 40 µM, 2 h",reference: untreated,glutathione content,decreased
CN[C@@H]1[C@H](O)[C@H](NC)[C@H]2O[C@]3(O)[C@H](O[C@@H]2[C@H]1O)O[C@H](C)C[C@@]3(O)CNCc1ccc(F)cc1,Neisseria meningitidis,,ATCC 13077,40 µg per disc,,inhibition zone diameter,19 to 20 mm
CC(=O)[O-].F[P-](F)(F)(F)(F)F.[Co+2].c1ccc(CN2CCCNCCN(Cc3ccccc3)CCCNCC2)cc1,Leishmania donovani,"parasite growth, resazurin",,"72 h, amastigote",,IC50,> 15 µM
CC[C@H](C)[C@H](NC(=O)[C@H](CCCCN)NC(=O)[C@H](CCCCN)NC(=O)[C@H](CC(C)C)NC(=O)[C@H](CCCCN)NC(=O)[C@H](CCC(=O)O)NC(=O)[C@H](CCCCN)NC(=O)[C@@H](NC(=O)[C@H](CCCCN)NC(=O)[C@H](CC(N)=O)NC(=O)[C@H](CCCNC(=N)N)NC(=O)[C@H](Cc1ccccc1)NC(=O)[C@H](CCCCN)NC(=O)[C@H](CCCNC(=N)N)NC(=O)[C@H](CC(C)C)NC(=O)[C@H](CCCNC(=N)N)NC(=O)[C@H](CCCCN)NC(=O)[C@H](CCCNC(=N)N)NC(=O)[C@H](CC(C)C)NC(=O)[C@@H](N)CC(C)C)[C@@H](C)CC)C(=O)NCC(=O)N[C@@H](CCC(N)=O)C(=O)N[C@@H](CCCCN)C(=O)N[C@H](C(=O)N[C@@H](CCC(N)=O)C(=O)NCC(=O)N[C@@H](Cc1ccccc1)C(=O)N[C@H](C(=O)N1CCC[C@H]1C(=O)N[C@@H](CCCCN)C(=O)N[C@@H](CC(C)C)C(=O)N[C@H](C(=O)N1CCC[C@H]1C(=O)N[C@@H](CCCNC(=N)N)C(=O)N[C@H](C(=O)N[C@@H](CCC(=O)O)C(=O)N[C@@H](CO)C(=O)O)[C@@H](C)O)C(C)C)C(C)C)[C@@H](C)CC,Stenotrophomonas maltophilia,inhibition zone,CGMCC 1.179,"LB agar, overnight",,lethal concentration,3.21 µM
Nc1ccn(C[C@@H](CO)OCP(=O)(O)OCCCS(=O)(=O)CCCCCCCCCCCCC2CCC2)c(=O)n1,human alphaherpesvirus 3,,"HFF, Ellen",,reference: CC50 over EC50,selectivity index,23
CN1CCNC1=S.CN1CCNC1=S.O=[N+]([O-])[O-].[Ag+].c1ccc(P(c2ccccc2)c2ccccc2)cc1,Staphylococcus epidermidis,,"MTCC 435, DMSO","0.1 mL of 50 mg/mL in 8 mm well, 18 to 24 h",,inhibition zone diameter,30 mm
CC(=O)[O-].F[P-](F)(F)(F)(F)F.[Co+2].c1ccc(CN2CCCN3CCN(CCCN(Cc4ccccc4)CC3)CC2)cc1,Leishmania donovani,"parasite growth, resazurin",,"72 h, amastigote",,IC90,> 15 µM
CCCCn1c2ccccc2c2ccnc(-c3ccc(OC)cc3)c21,Echinococcus granulosus sensu stricto,,protoscoleces,48 h,,LC50,66.6 ± 3.09 µM

# Some of these lines once more:
SMILES,organism,assay,system,conditions,how to read,quantity,result
CC(=O)[O-].F[P-](F)(F)(F)(F)F.[Co+2].c1ccc(CN2CCCN3CCN(CCCN(Cc4ccccc4)CC3)CC2)cc1,Leishmania donovani,"parasite growth, resazurin",,"72 h, amastigote",,IC90,> 15 µM
